Experimental data collected from several papers.
A part holds a random share of what one study measured.

Study 1 — technique: RNA Bind-n-Seq; form: RNA; sample: in vitro; concentration: not given; reference: input RNA pool; reading: higher = stronger binding
Target: RING finger protein unkempt homolog, zinc fingers 1-6, GST-SBP tag (UNK, Homo sapiens, UniProt Q9C0B0, residues 30-357)
Notes: RNA with constant flanks, human and mouse sites, ends assumed
Shared flanks, not repeated: GGGAGUUCUACAGUCCGACGAUC … CAACAGAGGAUUGAGCAUCA
Residues (chain): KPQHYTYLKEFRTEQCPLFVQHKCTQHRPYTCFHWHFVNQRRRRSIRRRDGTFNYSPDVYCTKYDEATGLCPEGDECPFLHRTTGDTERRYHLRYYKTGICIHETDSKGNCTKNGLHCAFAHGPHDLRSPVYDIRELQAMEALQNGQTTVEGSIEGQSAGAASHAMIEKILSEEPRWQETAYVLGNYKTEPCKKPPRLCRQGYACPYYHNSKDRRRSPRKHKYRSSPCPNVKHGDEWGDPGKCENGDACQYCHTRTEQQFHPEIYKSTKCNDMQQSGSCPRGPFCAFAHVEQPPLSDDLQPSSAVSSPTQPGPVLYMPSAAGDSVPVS
Strand	bound/input enrichment [ratio]
CUCUCCAACUGCAACCACACCUACUGUCUCAAGUGCAUUCGCAAGUGGAGGAGUGCUAAGCAAUUUGAGAGCAAGAUCAUAAAGUCCUGCCCAGAAUGCCGGAUCACAUCUAACUUUGUC	0.0866
AGCAAAAGAGCCAAGCAGUAGCAAUGUUUGUUUUUUUUUUUUUUUGUAAAUGUAAAAAUAAUUAGCUCUAGACCUGUUUCCUUUGAUUUAAAAAUAAAGAAUGCCUCAGUGCUGCUCUCA	1.25
CCCACGCCACGGGGCCAUGGGCAGCUCGAGCCAGGCAGGCUGCUGCCCACGCUUACUGCCAGGGUGACCCCAGCCCUGGGGCCCAGCCACAACCACCCUGGCUUCAUGCCAGGGGCUGCU	0.104
GUAGAAUCCUGUCGAGGAAAAAAUCUUUUUUUUUCUACCAAUAUUGAUGAUGCCAUCAAAGAAGCUGAUCUUGUAUUUAUUUCUGUGAAUACUCCAACAAAAACCUAUGGAAUGGGGAAA	0.168
AAGGAAAUGCUGGCCGCAAACCCUCAGGAUCGCCCUGAUGCUUUUGAACUAGAACUCAGAUUAGUCCAAAUUGCAUUUAAAGACAGCAGCUGGGAGACGUGACCUACUGCUUGCAAGCAU	0.698
AGCCAGGGCAAGCCUGGCAGUCCAGAACCUGAAACAGAGCCUGUUUCUUCAGUUCAGGAGAACCAUGAAAACGAAAGAAUUCCUCGGCCACUCAGCCCAACUAAAUUACUGCCUUUCUUA	0.139
GCAGCUUUGAAAAAACACCAUGAAGAAGAAAUCGUUCAUCAUAAGAAGGAGAUUGAGCGUCUGCAGAAAGAAAUUGAGCGCCAUAAGCAGAAGAUCAAAAUGCUAAAACAUGAUGAUUAA	0.332
UUGAAGGGAAUCAUUAACAGCUUGUUACAAGAAUGGAAAGGUCCACGAACAAAAGAUGAUCUUAGAGCAUAUUUUAUACUGUUACAGAAUCCUCAAUUUAAUAUCACAUCUACAUAUGUC	1.46
UUCUGGUUUCCUUGGAGAAAAGCUCUGCUGCCCUGAUUAUGAACUCUAUAAUAGAGUAUAUAGCUUUUGUACCUUUUUUACAGGAAGGUGACUUUCUGUAAUCAUGUGAUGUAUAUUAAA	3.06
AUGACAGGAAACAUCCCAACAUGGCUCACUGAGCUAGGAAAAACCUGCCCAUUUUUCUUUCCUUUUGAUACCCGACAAAUGCUUUUUUAUGUAACUGCAUUUGAUCGGGACCGGGCAAUG	0.145
AGAGUCUUUCAACACUUUGCACAUGAUGUAUCACGAAGCUACAGCUUGCCAUGUGACUGGAGAUUUAGUAGAACUUCUGUCAAUAUUUCUUUCGGUUUUGAAGUCUACACGCCCUUAUCU	0.259

Study 2 — technique: RNA Bind-n-Seq; form: RNA; sample: in vitro; concentration: 365 nM; reference: no-protein control; reading: higher = stronger binding
Target: RNA binding protein fox-1 homolog 2, RRM domain, GST-SBP tag (RBFOX2, Homo sapiens, UniProt O43251-10, residues 100-194)
Notes: natural RNA segment, single round, ends assumed
Shared flanks, not repeated: GGGAGUUCUACAGUCCGACGAUC … UGGAAUUCUCGGGUGCCAA
Construct (chain): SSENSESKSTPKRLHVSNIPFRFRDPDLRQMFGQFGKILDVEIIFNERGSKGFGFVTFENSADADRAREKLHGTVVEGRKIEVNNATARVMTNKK
Strand	RBNS enrichment (R)
AAGGAGGAAAGAGAUAAAGGUUAAAGUCCCAGAUCUGUGCCCUCCAGUAGGUUGGGCUGCUCAUUUGCCUUCGGAUGACAUUAUGUAAAUAAACGAAUGUCACACCCACA	0.282
UUGAUAUGAUCCAACAAAUUUGAUCAGAAGCUGUAGGUAAAUCCUCUUCUGAAGCCAAAAUGGUAUAUUAAAUAUAAUUUAUUGGUACUUCCAUUUUCUCUUCCUUCUUA	0.697
AAAGUAGAGACGAUGGGGACUGUCUCACUGUGACAAGGUAAGAUUUAAGUGAGAUGCACACAAAAAGCUCAGCACAGUGUCUGGCAUCUAAUAUGUGCAGGGCAGAUGUC	0.93
AUGGCUGGACGCUGGCCAAGCCUGUGCCUGCUGCUCACGCACUCACCACAACCACCUGUCCACCCCUUCCUUCCCCACCACUGUCGCUCACCCUGACAUAUGCCCACAUC	0.751
UGAUACGCAGUUGUGCAUGGGAAGGGGAAACGCACAGCUUUAUUUACUGUAAAGUGGAAUUUCAGGAAGGCUUGUGUGAACCGUUGCGCAUAAAUAAACCCUUUCUACCG	1.62
AAAACAGAGAUAAACAUUAGAUGUCUAAAGGAGUUAGUAAUGAAAAGCCUAUCCUUAAAAAAUAAACCUGUUGAAAUGGGCUUUAAAGACAUCGAAAUAAUCACUUGUCA	0.542
GCCAGGACCCCAUGCUUCCUUUACUCUGUCUCCUCAUCUCUGUACCUCCCCUGACACCCCAGUCCUGGUUGGCCCUUUCUCCUGCCUUGCCCUGAAGUCUUACCUUCUCC	1.4
UCAGCAGCAUGCACUGUUGAGCUUUUCUGACGCUGUGUCAGAAUGGCACUAGUUCAGUUUAUAUCCCUCUCAUAAUAUGGCAGUUCAUUAAAAUACAAAGCAGUAAAAUG	1.67
CCAUGCUCAGUGGUCACUAUCCCCUCAACUCCCCACUUAGGGUUGGAAGUUCUGCCACUGUACUCUGGAAAUCCUGUCCUCACCUUGCCCUUCCCUGAGCAUCCGACUCU	0.58
CUGGUCUGCCAUUCGCCAGUGCAGGGAUCUGGCACGGACCAGAUGUGGCGAAUGGCAGCACAGCGCGGUGGCUGGGUCUGCACACUGGCCUCUGCAGCCAGAUUUCUAUA	0.48
CAGUGAAGGUCUCAGACCAAGGGGUACAAGAACUCCAGCACACCCAGAGAUGGUCAUGCACAGCCUCUUGAGACGCAUGUCACAAUGUCCUAUGACAGAGAAUGACUUAG	1.7
CAAUGUGAAAAUCCACUCUUUUAUUAUGUUGAGAUUAUCUUCUGAUCAGGAAGUUUGAGUGCUAUGCAAAUAACAUAGUAGUAAUUUCUCUUUGCAUGCCAUGUGUAAUA	5.65

Study 3 — technique: RNA Bind-n-Seq; form: RNA; sample: in vitro; concentration: 1 µM; notes: whole 134-nt RNA, ends assumed; added: 150 mM KCl; reference: input library; reading: higher = stronger binding
Target: Ras GTPase-activating protein-binding protein 1, RRM domain (G3BP1, Homo sapiens, UniProt Q13283)
Chain of UniProt Q13283 (whole entry, looked up): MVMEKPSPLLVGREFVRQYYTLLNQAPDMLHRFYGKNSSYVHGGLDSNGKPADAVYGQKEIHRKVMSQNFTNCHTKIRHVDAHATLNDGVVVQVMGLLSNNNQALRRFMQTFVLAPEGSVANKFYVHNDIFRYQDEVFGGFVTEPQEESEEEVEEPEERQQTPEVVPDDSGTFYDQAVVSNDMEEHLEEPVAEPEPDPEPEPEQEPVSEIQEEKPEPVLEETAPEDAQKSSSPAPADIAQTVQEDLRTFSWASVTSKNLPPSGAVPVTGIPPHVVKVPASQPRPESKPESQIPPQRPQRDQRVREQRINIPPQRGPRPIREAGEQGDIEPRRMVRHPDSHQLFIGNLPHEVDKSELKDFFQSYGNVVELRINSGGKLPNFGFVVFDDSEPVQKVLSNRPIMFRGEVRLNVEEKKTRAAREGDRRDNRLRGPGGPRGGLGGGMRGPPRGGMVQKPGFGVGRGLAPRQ
Shared flanks, not repeated: GGGAGUUCUACAGUCCGACGAUC … UGGAAUUCUCGGGUGUCAAGG
Strand	log2 enrichment
UGGCCCUGGUGGCAUGCGGGGAGGAAGAGGUGGCCUCAUGGAUCGUGGUGGUCCCGGUGGAAUGUUAAGAGGUGGCCGUGGUGGAGACAG	2.18
UCCUGUGCUACACAUCGUAUGUACCGAAUCAAAGUGUGUGUGUGAAAUGUGUGUGUGAAAAAAGUAUUAUGUUACGCCGUUCGGAUCUGC	-0.0347
GUCCUGUGCUACACAUCGUAUGUACCGAAUCGGGGCCCCCGGGCCCCCGGGCCCCCGGAAAGUAUUAUGUUACGCCGUUCGGAUCUGCAC	-0.749
UCCUGUGCUACACAUCGUAUGUACCGAAUCGGGGAAAAAGGGGAAAAAAAGGGGAGGGGAAAGUAUUAUGUUACGCCGUUCGGAUCUGCA	0.676
GUCCUGUGCUACACAUCGUAUGUACCGAAUCGGGUUUUUGGUUUUUGGGGUUUUUGGGAAAGUAUUAUGUUACGCCGUUCGGAUCUGCAC	-0.0301
CCUCAAGUCCUGUGCUACACAUCGUAUGUACCGAAUCGGGUUGGUUGGUUGGGAAAGUAUUAUGUUACGCCGUUCGGAUCUGCACUUCCA	-0.294
CUCAAGUCCUGUGCUACACAUCGUAUGUACCGAAUCGGAAAAAAAGGAGGAGGAAAGUAUUAUGUUACGCCGUUCGGAUCUGCACUUCCA	-0.147
CACAGACAACACGCACCCACACAGACACAGAGGGAAGGGGUUGGGAUGGGGACAGGGUGCACAGCAGGGCGGGGUAGGACCCGAGCCCCU	-0.442
UGGCCCUGGUGGCAUGCGGGGAGGAAGAGGUGGCCUCAUGGAUCGUGGUGGUCCCGGUGGAAUGUUCAGAGGUGGCCGUGGUGGAGAGAG	1.59
CACAGACAACACGCACCCACACAGACACAGAGGGAAGGGGUUGGGAUGGGGACAGGGUGCAGAGCAGGGCGGGGUAGGACCCCAGCCCCU	-0.0258

Study 4 — technique: protein-binding microarray; form: double-stranded DNA, one strand shown; sample: in vitro; concentration: 2200 nM top; notes: 60-bp whole probe; added: salmon DNA 0.4 mg/ml; reference: random background probes; reading: higher = stronger binding; shared flanks, not repeated: GCCTAGCAC … GTCTTGATTCGCTTGACGCTGCTG
Target: Interferon regulatory factor 7, full length, phosphomimetic (IRF7, Homo sapiens, UniProt Q92985, residues 1-503, S471D/S472D/S475D/S476D/S477D/S483D/S484D/S487D)
Chain of UniProt Q92985 (whole entry, unmodified, looked up): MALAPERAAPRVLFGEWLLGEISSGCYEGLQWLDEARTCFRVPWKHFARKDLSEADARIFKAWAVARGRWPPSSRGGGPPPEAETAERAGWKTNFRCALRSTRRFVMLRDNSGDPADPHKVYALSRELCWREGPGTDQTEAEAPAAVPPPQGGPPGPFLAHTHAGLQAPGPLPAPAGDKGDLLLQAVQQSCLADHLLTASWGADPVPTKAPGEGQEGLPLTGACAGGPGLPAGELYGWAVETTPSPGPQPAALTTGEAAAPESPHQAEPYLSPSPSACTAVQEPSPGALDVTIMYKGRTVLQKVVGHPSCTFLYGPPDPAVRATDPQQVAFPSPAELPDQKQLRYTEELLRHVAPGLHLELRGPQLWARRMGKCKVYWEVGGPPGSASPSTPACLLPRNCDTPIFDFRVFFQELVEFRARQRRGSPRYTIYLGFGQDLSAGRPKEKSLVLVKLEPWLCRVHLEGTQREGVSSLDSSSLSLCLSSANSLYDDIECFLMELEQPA
Strand	fitted relative affinity [z-score]
GATGTTTTAGGTCCCTTTTCGTGCTAG	2.22
GACGGTACCGGGTATCGGGACGTGCTA	-0.521
GACGGACTGGAAACTGGGGACGTGCTA	-0.403
GACGATATGGGGTATCGAGACGTGCTA	0.426
TTAGGTATCCGACTGCTTTAGTGCTAG	0.302
TTAGATATCATTCTCGATTAGTGCTAG	0.625
GACGATTTCAGACTGTAGACGTGCTAG	0.356
TCATCTCTAGAAATTCCCACTGTGCTA	0.716
GACGGTATCGTGACTGGGGACGTGCTA	-0.303
GTCGATTTCGGGTTTCGAGACGTGCTA	6.34
GCCGAACTGGGGTTTCGAGACGTGCTA	0.604
TTAGGACTGGGGACTGGGTTAGTGCTA	-0.954
GACAATATCGGGTATCGAGACGTGCTA	-0.126
GACGGTTTCGGGACGGGGGACGTGCTA	4.68
TTAGATCTCAGACGGGATTAGTGCTAG	-0.153
GACGGTATCGGTTTCGGTACGTGCTAG	5.09
TTAGATATCGGGTTTCGACTAGTGCTA	1.62
TCAGTAATGCTTCTGTAACTGTGCTAG	0.478
TCAGGACTCAGGTCTCCCACTGTGCTA	-0.0275
TTAGGACTGGGGACTGGTTTAGTGCTA	-0.729
GACGATTTCAGTATCTAGACGTGCTAG	0.746
CAAACACTAATTTTCAATTCGTGCTAG	1.43

Excerpt of the above (study 2):
Strand	RBNS enrichment (R)
AAAACAGAGAUAAACAUUAGAUGUCUAAAGGAGUUAGUAAUGAAAAGCCUAUCCUUAAAAAAUAAACCUGUUGAAAUGGGCUUUAAAGACAUCGAAAUAAUCACUUGUCA	0.542
GCCAGGACCCCAUGCUUCCUUUACUCUGUCUCCUCAUCUCUGUACCUCCCCUGACACCCCAGUCCUGGUUGGCCCUUUCUCCUGCCUUGCCCUGAAGUCUUACCUUCUCC	1.4
UCAGCAGCAUGCACUGUUGAGCUUUUCUGACGCUGUGUCAGAAUGGCACUAGUUCAGUUUAUAUCCCUCUCAUAAUAUGGCAGUUCAUUAAAAUACAAAGCAGUAAAAUG	1.67
CCAUGCUCAGUGGUCACUAUCCCCUCAACUCCCCACUUAGGGUUGGAAGUUCUGCCACUGUACUCUGGAAAUCCUGUCCUCACCUUGCCCUUCCCUGAGCAUCCGACUCU	0.58
CUGGUCUGCCAUUCGCCAGUGCAGGGAUCUGGCACGGACCAGAUGUGGCGAAUGGCAGCACAGCGCGGUGGCUGGGUCUGCACACUGGCCUCUGCAGCCAGAUUUCUAUA	0.48
